Published values collected from several papers.
Every numbered part comes from another study and shows a few of its results, in no order.

Set 1 — method: RNA Bind-n-Seq; form: RNA; sample: in vitro; concentration: 1 µM; setting: whole 134-nt RNA, ends assumed; with: 150 mM KCl; baseline: input library; reading: higher = stronger binding
Target: Ras GTPase-activating protein-binding protein 1, RRM domain (G3BP1, Homo sapiens, UniProt Q13283)
UniProt Q13283, sequence (whole entry, looked up): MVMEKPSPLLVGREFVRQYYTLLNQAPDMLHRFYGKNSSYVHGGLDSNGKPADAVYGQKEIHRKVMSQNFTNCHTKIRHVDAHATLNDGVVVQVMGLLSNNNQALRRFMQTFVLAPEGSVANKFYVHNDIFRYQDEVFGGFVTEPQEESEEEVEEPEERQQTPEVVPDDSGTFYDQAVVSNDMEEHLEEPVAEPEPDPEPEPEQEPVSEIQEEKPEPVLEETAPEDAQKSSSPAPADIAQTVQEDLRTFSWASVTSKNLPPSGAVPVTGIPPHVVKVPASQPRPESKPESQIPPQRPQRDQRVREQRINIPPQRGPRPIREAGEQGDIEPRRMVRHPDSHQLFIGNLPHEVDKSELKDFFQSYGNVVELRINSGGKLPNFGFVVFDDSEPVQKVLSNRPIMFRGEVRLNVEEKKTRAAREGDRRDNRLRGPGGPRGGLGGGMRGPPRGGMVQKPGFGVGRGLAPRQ
Strand	log2 enrichment
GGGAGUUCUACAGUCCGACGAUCGCAGGAAGUAAAAACAAAAGGAAAUGCUUCGGAUAGUGGCAGGGGUGGGGGUUGCUAAGGAAAGGGUGGGAUGGGAGUGGGUAAAGAGUUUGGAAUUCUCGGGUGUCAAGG	1.46
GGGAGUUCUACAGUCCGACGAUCGUCCUGUGCUACACAUCGUAUGUACCGAAUCGGGGAAAGGGGAAAAAGGGGAAAGGGGAAAGUAUUAUGUUACGCCGUUCGGAUCUGCACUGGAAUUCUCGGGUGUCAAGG	1.67
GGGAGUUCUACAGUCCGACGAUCCCUCAAGUCCUGUGCUACACAUCGUAUGUACCGAAUCGUGUGUGUGUGUGUGUAAAGUAUUAUGUUACGCCGUUCGGAUCUGCACUUCCAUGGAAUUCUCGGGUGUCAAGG	-0.0925
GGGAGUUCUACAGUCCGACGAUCUAACUUUAGAGGAGGAUCUGAUGGAUAUGGAAGUGGACGUGGAUUUGGGGAUGGCUAUAAUGGGUAUGGAGGAGGACCUGGAGGUGGCAAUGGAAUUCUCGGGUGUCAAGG	-0.742
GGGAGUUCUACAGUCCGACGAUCUCCCUAUUCCAGUCAUACACGUGGACCUAACUGCACCAGUAGCUUUUCUGAGAAUACUUGCUGAAAAGGAAGUUUUCUGGAAUGGGUAAGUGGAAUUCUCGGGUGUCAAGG	-0.128
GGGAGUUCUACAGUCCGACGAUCGUCCUGUGCUACACAUCGUAUGUACCGAAUCGGGUUUUUGGGUUUUUGGUUUUUGGGGAAAGUAUUAUGUUACGCCGUUCGGAUCUGCACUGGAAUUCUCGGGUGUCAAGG	-0.121
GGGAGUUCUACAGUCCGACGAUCCCUGUGCUACACAUCGUAUGUACCGAAUCGGCCCCCCCGGCCCCCCCGGGGCCCCCCCGGGAAAGUAUUAUGUUACGCCGUUCGGAUCUGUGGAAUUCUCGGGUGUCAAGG	-0.639
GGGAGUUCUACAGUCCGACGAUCCCUCAAGUCCUGUGCUACACAUCGUAUGUACCGAAUCGGGUGGGGUGGUGGGGAAAGUAUUAUGUUACGCCGUUCGGAUCUGCACUUCCAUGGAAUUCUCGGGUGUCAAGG	0.238
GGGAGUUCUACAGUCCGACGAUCUGGCCCUGGUGGCAUGCGGCGAGGAAGAGGUGGCCUCAUGGAUCGUGGUGGUCCCGGUGGAAUGUUCAGAGGUGGCCGUGGUGGAGACAGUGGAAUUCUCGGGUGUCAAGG	0.977
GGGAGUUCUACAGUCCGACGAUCGAUCUCCGGGCUCAGUUGCAGAUUCUGGCCAACAUGGACAGCCAGCUAAAAGAGCUACAGAGUCAGCAUACCCAUUGUGCCCAGGACCUGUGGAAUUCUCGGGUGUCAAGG	-0.221
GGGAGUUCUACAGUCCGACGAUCUCAAGUCCUGUGCUACACAUCGUAUGUACCGAAUCGGAGGUUUGGUUUUUUUGGAAAGUAUUAUGUUACGCCGUUCGGAUCUGCACUUCCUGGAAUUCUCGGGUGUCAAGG	-0.249
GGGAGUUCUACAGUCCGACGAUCCUCAAGUCCUGUGCUACACAUCGUAUGUACCGAAUCGGCCGGGCCGGGCCGGGGAAAGUAUUAUGUUACGCCGUUCGGAUCUGCACUUCCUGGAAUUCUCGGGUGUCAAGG	-0.719
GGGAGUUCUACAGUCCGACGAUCUCAAGUCCUGUGCUACACAUCGUAUGUACCGAAUCGGGUGGGAGGGUUUUUGGGAAAGUAUUAUGUUACGCCGUUCGGAUCUGCACUUCCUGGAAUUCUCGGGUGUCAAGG	0.579
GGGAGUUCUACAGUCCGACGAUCUCAAGUCCUGUGCUACACAUCGUAUGUACCGAAUCGGGUGGGAGGGAAAAAGGGAAAGUAUUAUGUUACGCCGUUCGGAUCUGCACUUCCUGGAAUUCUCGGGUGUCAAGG	0.581

Set 2 — method: aptamer microarray, sandwich; form: DNA with 2'F-ANA; sample: in vitro; concentration: 200 nM; with: Cy3 exosite-II aptamer, 400 nM; reading: higher = stronger binding; strand: GGTTGGTGTGGTTGG
Target: Prothrombin, mature alpha-thrombin (F2, Homo sapiens, UniProt P00734)
Setting: whole 15-mer aptamer, many near background
Modification	mean fluorescence intensity [a.u.]
2'F-ANA at 2 5 6 10 13 14	100
2'F-ANA at 3 4 6 7 8 12 13 14 15	308
2'F-ANA at 2 3 4 5 6 9 11 13	61.9
2'F-ANA at 2 4 8 9 10 14	73.4
2'F-ANA at 1 3 6 7 8 9 11 12 15	366
2'F-ANA at 2 3 5 9 11 12 13 14 15	55.3
2'F-ANA at 1 2 3 4 6 7 15	201
2'F-ANA at 1 2 5 8 9 10 12 14	47.3
2'F-ANA at 1 2 7 9 10 12 13 15	85.1
2'F-ANA at 1 2 4 7 11 12	226
2'F-ANA at 3 5 9 12 14	68.5
2'F-ANA at 1 2 5 7 8 11 12 14	48.2
2'F-ANA at 6 11 13 14 15	141
2'F-ANA at 1 2 3 6 8 11 13	165
2'F-ANA at 2 3 4 5 7 10 13 14 15	48.4
2'F-ANA at 2 4 6 8 11 15	234
2'F-ANA at 2 8 9 10 11 12 13 15	146
2'F-ANA at 1 2 3 4 6 13 14 15	54.2
2'F-ANA at 1 6 7 8 13	150

Set 3 — method: RNA Bind-n-Seq; form: RNA; sample: in vitro; concentration: 365 nM; baseline: no-protein control; reading: higher = stronger binding
Target: RNA binding protein fox-1 homolog 2, RRM domain, GST-SBP tag (RBFOX2, Homo sapiens, UniProt O43251-10, residues 100-194)
Setting: natural RNA segment, single round, ends assumed
Residues (chain): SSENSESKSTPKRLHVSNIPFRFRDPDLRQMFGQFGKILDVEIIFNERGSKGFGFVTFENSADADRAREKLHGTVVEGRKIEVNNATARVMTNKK
Strand	RBNS enrichment (R)
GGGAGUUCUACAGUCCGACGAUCGACAAGUUCAUUUCAUCUUGAGAUCAUGGUGAAAUAUUUUGGAUAUAUAAAUUCCUUAAGCUAUUGUAACCAUGUUUUAUUGCAAAGAUGUAAAAUAUGCCAGAUGUGUGUGGAAUUCUCGGGUGCCAA	0.407
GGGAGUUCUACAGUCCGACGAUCUCGGGUUCUCUGUAAUACUCAAGUCCUCUCUCAUUCUUACCUACCUCGACUCUUGAGAGGGAGGCUUUGGUAUCCUUGGGUCUCAGCAUGGACAGUUAUGUAUAUCUACUUGGAAUUCUCGGGUGCCAA	1.82
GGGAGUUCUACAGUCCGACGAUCCCCCCUUUCAAGGAAAGUGAACCUUUAAAGUAAAGGCCUCAUCUCCUUUAUUGCAGUUCAAAUCCUCACCAUCCACAGCAAGAUGAAUUUUAUCAGCCAUGUUUGGUUGUUGGAAUUCUCGGGUGCCAA	0.257
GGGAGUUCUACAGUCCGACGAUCAACCCUUUUCACAGUGUACUGUGUUUGGUUGGUGUAAAACUGAUGCAGAUUUUUCUGAAAUGAGAUGUUUAGAUGAGCAUACUACUAAAGCAGAGUGGAAAAAUCUGUCUUGGAAUUCUCGGGUGCCAA	0.546
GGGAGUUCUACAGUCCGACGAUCAAGGAAAAAAAAAUUCACACCUGGCUUUCAGGUAACUGACUUUGGAUUCUUACAAGCAAAGGUCAUUGUGUUUUUUCUUGAGUAGAUACCUAAUAAAUUUUGCUUGAAAGUGGAAUUCUCGGGUGCCAA	0.519
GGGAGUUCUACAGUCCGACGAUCUCUUUUUUUCAUCCUUUAAAUUGUAAAUUAAGGAUUACUCAAGCUCACCAUUAUUCAAGAUUGGGACUCGCUUCCCAGUCGACACUCUGCCCUGCCUGUCAUUGCUGCAAUGGAAUUCUCGGGUGCCAA	0.462
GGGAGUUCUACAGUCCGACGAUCGGGCAGCCCCAGCCCUGGGAACCUCUCCCACUACACCCACAAGACGCCACCAUGAAGCCUCAAAAGGUUCAGUAUUAAGGGUUUUAACCGAAAAGAGUUUAACCAGCCCAUGGAAUUCUCGGGUGCCAA	0.326
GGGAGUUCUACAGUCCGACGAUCCAGAAGGGAGAGUGGUAUAGAUAGAAAAUGACAAAGAUGGCAAUAUACACUUAAUGUUGUUAUUGUAUGUUGUUACUGAAGUACUUAGAUUUUUAAAAUUUCAAAUCCUAUGGAAUUCUCGGGUGCCAA	0.398
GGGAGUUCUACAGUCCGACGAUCUCCCAAAGCCGAAACAAGAAAAGUCAGCAUGCCUGGGGCUAGAAGCGGAAUGUAAGAUACGUCUCUAUGCCAAAUGGAGUUGUAGAAUGUACCCUCUCAGCCCAUAAACAUGGAAUUCUCGGGUGCCAA	5.35
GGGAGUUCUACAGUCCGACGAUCUCCACAGUGUAUUAGUGACAUUCUUUCAUUGACAGCUGACAUAAUUCAUUGAGUGAAAUAUUUUAAGCCAAAAAAAAAUUCCCUUUUUAAAAAAGGGGGUUUAAAUACUGUGGAAUUCUCGGGUGCCAA	0.525
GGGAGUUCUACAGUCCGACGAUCGGAAACCCCAGCUCCCCCAACCCUGCUACCACUGGCCUGCCACCUUGACCCUGCUCAACCUUCUCCCUCUAGCACAAGGGAACAUUUCUAGAAAAGUAAAAUCUACUUUUUGGAAUUCUCGGGUGCCAA	0.904
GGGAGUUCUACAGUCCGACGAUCUCCUGAUUUUUCCAUAAAACAUGAGUAUUAAGAAAUAAUUCCUGGUUUGGAGAAACUGGAGAAAUCACCCUUUUAAGGAAGAAACACUGGAAAUUUCUGCUAACACCAAGUGGAAUUCUCGGGUGCCAA	0.359

Set 4 — method: protein binding microarray; form: double-stranded DNA, one strand shown; sample: in vitro; concentration: not given; baseline: not given; reading: higher = stronger binding
Target: Histone acetyltransferase KAT6A, both winged helices, GST fusion (KAT6A, Homo sapiens, UniProt Q92794, residues 1-181)
Setting: 8-mer, flanks averaged, mean of 2 arrays, mostly near background
Construct (chain): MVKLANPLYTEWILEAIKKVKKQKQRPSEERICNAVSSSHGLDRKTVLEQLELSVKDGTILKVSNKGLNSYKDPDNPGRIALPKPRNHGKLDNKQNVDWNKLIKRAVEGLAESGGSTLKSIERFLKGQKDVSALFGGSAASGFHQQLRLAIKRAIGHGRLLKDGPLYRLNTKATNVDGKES
Strand	E-score
ACAGCACT	-0.144
ATTTATGC	-0.055
ACGTTAGT	0.0331
CAAATCGG	0.146
GCATCTAC	0.00247
AAGCAGCC	-0.0531
TCGGGGCA	0.0257
GAACCACA	-0.12
CTAGGCTC	-0.192
CCGGAGGC	0.00485
AAATCGTT	-0.0672
CATTCCCC	-0.0597
CAACGTTA	-0.0224
ATCCAGAA	-0.0311
GGGCCTCA	0.0592
AAGCACTC	-0.0237
CCTGCGTC	-0.0113
AATCATGT	-0.0932
AAGTTCAC	-0.0251
ATCCGTTA	0.171
ATCTACGA	-0.149
AACTTTCA	-0.107
CTCTTACA	-0.214
AAATGTCC	0.0351

Excerpt of the above (set 1):
Strand	log2 enrichment
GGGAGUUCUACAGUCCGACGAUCGCAGGAAGUAAAAACAAAAGGAAAUGCUUCGGAUAGUGGCAGGGGUGGGGGUUGCUAAGGAAAGGGUGGGAUGGGAGUGGGUAAAGAGUUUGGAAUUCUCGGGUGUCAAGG	1.46
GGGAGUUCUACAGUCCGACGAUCCUCAAGUCCUGUGCUACACAUCGUAUGUACCGAAUCGGCCGGGCCGGGCCGGGGAAAGUAUUAUGUUACGCCGUUCGGAUCUGCACUUCCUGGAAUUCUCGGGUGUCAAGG	-0.719
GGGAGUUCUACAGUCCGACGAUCUCAAGUCCUGUGCUACACAUCGUAUGUACCGAAUCGGGUGGGAGGGAAAAAGGGAAAGUAUUAUGUUACGCCGUUCGGAUCUGCACUUCCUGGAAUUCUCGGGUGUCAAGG	0.581
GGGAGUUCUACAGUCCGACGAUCGUCCUGUGCUACACAUCGUAUGUACCGAAUCGGGUUUUUGGGUUUUUGGUUUUUGGGGAAAGUAUUAUGUUACGCCGUUCGGAUCUGCACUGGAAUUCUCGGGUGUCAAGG	-0.121
